Published values of several laboratories.
Protocols differ between the studies behind these lines. ± marks the error that the study gave.

Compound	test	test system	setting	clearance
CN[C@@H]1[C@H](O)[C@H](NC)[C@H]2O[C@]3(O)[C@H](O[C@@H]2[C@H]1O)O[C@H](C)C[C@@]3(O)CNCc1ccc(Cl)cc1		rat	intravenous, 10 mg/kg	9.67 mL/min/kg
N[C@H](COc1ccccc1C(F)(F)F)c1ccccc1		male Sprague-Dawley rat	oral, 25 mg/kg	397 ± 80 mL/min/kg
C[Si]1(C)CNC(=O)c2ccccc21		Sprague-Dawley rat, male, plasma	intravenous, 1 mg/kg	30 ± 6 mL/min/kg
C=C(C)C(=O)Nc1ccc(-c2c(-c3ccc(Oc4nccc(C)n4)cc3)c3c(N)ncnc3n2C)cc1		Sprague-Dawley rat	intravenous, dose not given	30 mL/min/kg
CC(=O)[CH](C(C)=O)[Pt-2]1([S+](C)C)[O]C(C)=CC(C)=[O+]1 (stereo not drawn)	item: platinum	rat, plasma	intravenous, dose not given	0.57 mL/h
O=C(O)/C=C/c1ccc(NC(=O)C2(NC(=O)c3ccc4c(C5CCCCC5)c5n(c4c3)CCCCNc3ccccc3-5)CCCC2)cc1		rat	intravenous, 2 mg/kg	9 mL/min/kg
COc1cc(F)ccc1-c1ncnc(Nc2cccc(C[S@@](C)(=N)=O)c2)n1		male Wistar rat, plasma	intravenous	20 mL/min/kg
CN(C)C(=O)c1ccnc(N2Cc3cn(Cc4ccc(F)cc4F)nc3C2)n1		male Sprague-Dawley rat, plasma	5 mg/kg	< 5 mL/min/kg
CCCCCCCCCCCC(=O)OCN1C(=O)CCc2ccc(OCCCCN3CCN(c4cccc(Cl)c4Cl)CC3)cc21		rat Sprague Dawley female	intravenous, 5 mg/kg aripiprazole equivalent, emulsion	5.33 ± 1.83 mL/min/kg
Cc1cc(/C=C2\CN(C(C)C)C/C(=C\c3cc(C)c(O)c(C)c3)C2=O)cc(C)c1O		Sprague-Dawley rat, female, plasma	intravenous, 20 mg/kg	86 mL/min/kg
Cc1cnc(Nc2cc(C)c(C)c(C)c2)nc1Nc1ccc2oc(=O)[nH]c2c1		rat, plasma	intravenous, 1.0 mg/kg	18 mL/min/kg
COc1cc(NC(C)=O)c2c(c1O)-c1c(OC)c(OC)cc3c1C(C2)N(C)CC3 (stereo not drawn)		male Wistar rat, plasma	intravenous, 100 mg/kg	44.3 ± 8.87 mL/min/kg
O=C(O)/C=C/c1ccc(NC(=O)C2(NC(=O)c3ccc4c(C5CCCCC5)c5n(c4c3)CCCc3ccccc3-5)CCCC2)cc1		rat	intravenous, 2 mg/kg	250 mL/min/kg
CN[C@@H]1[C@H](O)[C@H](NC)[C@H]2O[C@]3(O)[C@H](O[C@@H]2[C@H]1O)O[C@H](C)C[C@@]3(O)CNCc1ccc(F)cc1		rat	intravenous, 10 mg/kg	9.33 mL/min/kg
Cc1ccc(O)c2c3c(nn12)CCC(C)(NC(=O)c1ccc(-n2cnc4cc(C(=O)O)ccc42)cc1Cl)C3 (stereo not drawn)		rat		30.4 mL/min/kg

A few entries again:
Compound	test	test system	setting	clearance
O=C(O)/C=C/c1ccc(NC(=O)C2(NC(=O)c3ccc4c(C5CCCCC5)c5n(c4c3)CCCCNc3ccccc3-5)CCCC2)cc1		rat	intravenous, 2 mg/kg	9 mL/min/kg
CN(C)C(=O)c1ccnc(N2Cc3cn(Cc4ccc(F)cc4F)nc3C2)n1		male Sprague-Dawley rat, plasma	5 mg/kg	< 5 mL/min/kg
